Experimental data collected from several papers.
Parts stem from different laboratories: compare values within a part only.

Set 1 — technique: protein-binding microarray; molecule type: double-stranded DNA, one strand shown; sample: in vitro; concentration: 940 nM top; setting: 60-bp whole probe; together with: salmon DNA 0.4 mg/ml; baseline: random background probes; direction: higher = stronger binding; shared flanks, not repeated: GCCTAGCAC … GTCTTGATTCGCTTGACGCTGCTG
Target: Interferon regulatory factor 5, full length, phosphomimetic (IRF5, Homo sapiens, UniProt Q13568-2, residues 1-514, S451D/S453D/S456D/S462D)
Sequence | fitted relative affinity [z-score]
GACGATATTGGGTTTCGAGACGTGCTA | 2.54
GACGATTTCGGTATCGGGACGTGCTAG | 3.6
GACGGTTTCCTTCTCCTCACGTGCTAG | 1.42
TCAATTCTCTGCTTCTGACTGTGCTAG | 1.41
AACTGCTGCCGTCCACCACTGTGCTAG | -0.0753

Set 2 — technique: protein binding microarray; molecule type: double-stranded DNA, one strand shown; sample: in vitro; concentration: not given; baseline: not given; direction: higher = stronger binding
Target: Histone acetyltransferase KAT6A, winged helix 2, GST fusion (KAT6A, Homo sapiens, UniProt Q92794, residues 85-181)
Setting: 8-mer, flanks averaged, mean of 2 arrays, mostly near background
Construct (chain): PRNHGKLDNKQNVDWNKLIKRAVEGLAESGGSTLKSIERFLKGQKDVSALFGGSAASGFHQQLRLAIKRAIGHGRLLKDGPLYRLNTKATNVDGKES
Sequence | E-score
ACGATCTA | -0.1
CAGCCCGA | 0.0615
AGCGAGGG | 0.0628
AGGGCTCA | -0.0395
GGGGCTAC | 0.105

Set 3 — technique: RNA Bind-n-Seq; molecule type: RNA; sample: in vitro; concentration: 365 nM; baseline: no-protein control; direction: higher = stronger binding
Target: RNA binding protein fox-1 homolog 2, RRM domain, GST-SBP tag (RBFOX2, Homo sapiens, UniProt O43251-10, residues 100-194)
Setting: natural RNA segment, single round, ends assumed
Shared flanks, not repeated: GGGAGUUCUACAGUCCGACGAUC … UGGAAUUCUCGGGUGCCAA
Construct (chain): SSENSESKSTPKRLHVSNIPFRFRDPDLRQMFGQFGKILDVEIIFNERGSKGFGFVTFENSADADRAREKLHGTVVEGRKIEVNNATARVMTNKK
Sequence | RBNS enrichment (R)
CAGCUGGAAGGACACAGGUUGCCGGAGUCCCUGACACAGCUCCAGCAUAUCUGUGACCAUCUGCUCCUGAUAACCACUGUCCAGCAUCUCUUCGGGCCAGCCCGGUGCCA | 0.365
AUUAUCCUAUUUCAAGUUUAUGGUAAGUCACAGAUGUUCUCCCAGUAGCAGGACCUUGUGCUAACCACAAACUGCACCUUCUCAGUACUCACAACCCCGAUCUGCAAGGU | 0.425
GAGUGAUGACGCAGAGACUCAGUGAACUUGAAAAUAGCAUUGCUUCGUGCACUUUGAAUACCAAUCAGGUGUUUUCUGUGCUACUAGUUGUCACGUUGCAUUCAUGUUCA | 0.302
AAAACUGAGUUCGAUGAAAGAAGAAAUCAAAAGGACACGCGCUGUAAAUGUAUAAAUGUAUAUUGUGUUGUAUGUAUAUUUUAUAUUUAUAAUAAAUGCAAACUAAUUCU | 0.979
UGGGGCGCUGCUCUCCCAGGUCCUGGUCAGACUCAGCUCCAUAGCUCUUGGAGGCUUUCCCUGGAUUCCCUGAGUACAGUGUUAAAAGGCCUAACCACACAGCCACCUGC | 0.45
GAGGCAUUCAUACAGAGCUGCAGUUAGGCAGAGUUGCGGGGCUAGAAGCAGAAGCAGACAUCCCAUUGCACCAGGACAGAGUACGGGACUUCACUCGGCAAGCAGCCCUG | 0.562

Other studies, line by line
Substance | target | test | system | conditions | scale | measurement | result
PhoQ, residues 284 288 289 292 302 303 HSSMNL | PhoP, residues 12 14 15 18 19 DLLYY (Escherichia coli, UniProt P23836) | Sort-seq, measured: YFP reporter | E. coli | PhoQ-PhoP variant library, together with: 10 µM Mg2+ | baseline: high Mg2+ state, higher = stronger signaling | fold induction | 2.83

A few entries again (set 1):
Sequence | fitted relative affinity [z-score]
GACGGTTTCCTTCTCCTCACGTGCTAG | 1.42
TCAATTCTCTGCTTCTGACTGTGCTAG | 1.41
